Measured values from different studies.
Protocols differ between the studies behind these lines. ± gives the spread as reported.
TDP1: Tyrosyl-DNA phosphodiesterase 1 (TDP1, Homo sapiens, UniProt Q9NUW8)
Chain of UniProt Q9NUW8 (whole entry, looked up): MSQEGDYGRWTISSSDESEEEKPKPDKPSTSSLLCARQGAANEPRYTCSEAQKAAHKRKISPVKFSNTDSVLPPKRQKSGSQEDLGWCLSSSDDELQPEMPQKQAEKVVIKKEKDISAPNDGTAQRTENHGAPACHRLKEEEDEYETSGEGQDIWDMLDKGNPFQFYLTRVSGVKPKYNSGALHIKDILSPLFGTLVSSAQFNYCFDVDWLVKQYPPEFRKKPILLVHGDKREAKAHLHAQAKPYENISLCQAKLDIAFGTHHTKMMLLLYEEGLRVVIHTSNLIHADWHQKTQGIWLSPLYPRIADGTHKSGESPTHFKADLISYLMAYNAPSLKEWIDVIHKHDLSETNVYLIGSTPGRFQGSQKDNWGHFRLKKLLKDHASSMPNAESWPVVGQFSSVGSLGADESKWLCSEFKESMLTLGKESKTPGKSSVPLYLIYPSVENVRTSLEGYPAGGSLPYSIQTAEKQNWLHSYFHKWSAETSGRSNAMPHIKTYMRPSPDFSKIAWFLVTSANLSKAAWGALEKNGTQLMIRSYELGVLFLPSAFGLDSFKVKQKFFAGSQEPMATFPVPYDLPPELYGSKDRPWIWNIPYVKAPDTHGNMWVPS

`Cn1ccc2ccc(C=NOCc3ccc4nc(-c5ccccc5)c(Nc5ccc(C(=O)O)cc5)n4c3)cc21` gave an inhibition of 20.6% (TDP1; enzyme activity, inhibitor; 100 µM, unpurified compound).
For `COc1cc(Oc2c(O)c(Br)c(C)c(Br)c2OC)c(C(=O)O)c(C)c1O`, the viability was 93.9 ± 20.6% (HepG2; MTT; 10 or 50 µM, 48 h).
With `C=CS(=O)(=O)c1ccccc1` the viability was 30 to 40% (HepG2; cell growth or viability, MTT; 12.5 µg/mL, 24 h).
With `COc1cc(Oc2c(O)c(Cl)c(C)c(Cl)c2OC)c(C(=O)O)c(C)c1O` the viability was 92.6 ± 20% (HepG2; MTT; 10 or 50 µM, 48 h).
The viability of `CC1CCN(C(=O)c2cccc(NC(=O)Nc3cc(Cl)cc(Cl)c3)c2)CC1` is reported as 122% (HepG2; cell growth or viability, MTT; 100 µM).
`COc1ccc2c(c1)c1c(n2CO)CN2CCc3cc(OC)c(OCc4ccccc4)cc3C2C1` (centres unmarked) gave a viability of 109% (HepG2; cell growth or viability; 10 µM, 24 h).
For `CC1CCN(C(=O)c2cccc(NC(=O)NC3CCCCC3)c2)CC1`, the viability was 93.9% (HepG2; cell growth or viability, MTT; 100 µM).
The viability of `CC[C@H](C)[C@@H](C(=O)N[C@@H](Cc1ccc(O)cc1)C(=O)N1CCC[C@H]1C(=O)N[C@@H](Cc1ccccc1)C(=O)O)n1cc(C(Cc2ccc(O)cc2)NC(=O)[C@@H](NC(=O)[C@H](CCCNC(=N)N)NC(=O)[C@@H](N)CC(=O)O)C(C)C)nn1` (some centres unmarked) is reported as 72.3% (HepG2; cell growth or viability, MTT; 100 µM, 24 h).
`CCSc1c(C=NOCc2ccc(-c3nc4cc(-c5ccccc5)ccn4c3Nc3ccc(C(=O)O)cc3)cc2)c2ccccc2n1C` gave an inhibition of 17.3% (TDP1; enzyme activity, inhibitor; 100 µM, unpurified compound).
`COc1ccc2c(c1)c1c(n2CO)CN2CCc3cc(OCc4cccc(F)c4)c(OC)cc3C2C1` (centres unmarked) gave a viability of 105% (HepG2; cell growth or viability; 5 µM, 24 h).
`c1cc2nc(c1)-c1cccc(n1)CCCc1ccc(cc1)OCCCCCCOc1ccc(cc1)CCC2` has a viability of 75.4% (HepG2; cell growth or viability, MTT; 200 µM, 24 h).

For quick reference, copied from above:
With `COc1cc(Oc2c(O)c(Cl)c(C)c(Cl)c2OC)c(C(=O)O)c(C)c1O` the viability was 92.6 ± 20% (HepG2; MTT; 10 or 50 µM, 48 h).
